Measured values from different studies.
Each numbered part is a random draw from the data of one study; scales do not carry over between parts. Substitutions count along the parent as printed.

Set 1
Target: Phosphate system positive regulatory protein PHO4, full length, GST-tagged (PHO4, Saccharomyces cerevisiae, UniProt P07270, residues 1-312)
Technique: competition protein-binding microarray
Molecule type: double-stranded DNA, one strand shown
Sample: in vitro
Concentration: 2 µM
Notes: whole 60-bp probe, lowest competitor level
Added: Cbf1 competitor, 0.05 µM
Direction: higher = stronger binding
Constant ends, left off below: … GTCTTGATTCGCTTGACGCTGCTG
Target sequence (chain): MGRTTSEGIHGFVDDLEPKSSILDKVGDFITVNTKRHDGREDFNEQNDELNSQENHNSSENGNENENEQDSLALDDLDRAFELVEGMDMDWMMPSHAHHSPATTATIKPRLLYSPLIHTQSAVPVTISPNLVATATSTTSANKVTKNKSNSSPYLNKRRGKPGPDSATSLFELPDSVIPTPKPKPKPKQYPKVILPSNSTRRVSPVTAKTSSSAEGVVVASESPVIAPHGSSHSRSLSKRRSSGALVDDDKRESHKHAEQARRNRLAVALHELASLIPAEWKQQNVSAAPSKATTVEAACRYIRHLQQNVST
Oligonucleotide | fluorescence intensity [a.u.]
CTAACGAAGGTTTGGATGGTGGGTGACAAGCCAAGT | 4140
AAAGCGGTAATTTGATCAGTGGGTGCAGATATCTAT | 4200
CAGTACATTGAAAAGCACGTGACGGAACACCAACTT | 17600
CGAAATATTATACGTCAGGTGTATATCAAGTGCTCA | 4500
CTTCTGTAAATTTGTTTGGTGGGTGGACGCGCCCCG | 4110
CTAACGAAGGTTTTTCACGTGGAATACAAGCCAAGT | 13000
GTCTTGTCTCATTTTCACGTGGACTTCCCCACTTCA | 11100
CGGGGTTAAGTTTTTCACGTGACCTGCTTGCAGCAG | 9240
GGCTAGTGCCAATATCACAAACAATAGGGACATCCA | 3260
TGCGCAACAACTTGTGTGGTGGGTGTATGTCTAGAA | 5040
CGGGGTTAAGTTTGATTCGTGGGTGGCTTGCAGCAG | 5600
CAGCGGCTTTCTTTTCACGGGCTTCTCTTTCAGCTT | 4040
ATTGCTCATTGAAAGCACGTGTTCCTTCAAATGAGA | 18800

Set 2
Target: CCNE1, cyclin fold, Cln2 fusion (human)
Technique: yeast growth competition, sequencing
Sample: yeast
Notes: weak parent motif
Reference: not given
Direction: higher = stronger binding
Starting sequence: RP1L1 docking peptide (human); TLGLGPLSFTLED
Change | normalised enrichment score
TLGLGALSFTLED [P6A] | 0.183
TLGLGPLSATLED [F9A] | 0.107
TAGLGPLSFTLED [L2A] | 0.208
ALGLGPLSFTLED [T1A] | 0.0685
TLGLGPLSFTAED [L11A] | 0.0767
TLALGPLSFTLED [G3A] | 0.162

Set 3
Target: Prothrombin, mature alpha-thrombin (F2, Homo sapiens, UniProt P00734)
Technique: aptamer microarray, sandwich
Molecule type: DNA with 2'F-ANA
Sample: in vitro
Concentration: 200 nM
Notes: whole 15-mer aptamer, many near background
Added: Cy3 exosite-II aptamer, 400 nM
Direction: higher = stronger binding
Oligonucleotide: GGTTGGTGTGGTTGG
Modification | mean fluorescence intensity [a.u.]
2'F-ANA at 1 2 4 5 6 7 9 10 11 13 15 | 76.8
2'F-ANA at 6 8 11 13 14 | 222
2'F-ANA at 2 3 4 5 6 7 10 11 15 | 59.1
2'F-ANA at 1 3 4 5 6 7 9 11 | 54.2
2'F-ANA at 5 9 10 11 14 | 46.7
2'F-ANA at 2 3 7 8 9 11 12 13 15 | 818
2'F-ANA at 1 2 3 7 8 12 13 15 | 495
2'F-ANA at 1 2 5 6 8 9 11 12 | 91.2
2'F-ANA at 1 2 3 5 8 9 12 13 | 86.8
2'F-ANA at 2 3 5 8 10 11 | 63.7
2'F-ANA at 1 4 5 6 7 11 | 51.5
2'F-ANA at 1 4 7 8 9 10 11 12 15 | 57.4
2'F-ANA at 3 5 7 10 12 15 | 81.7
2'F-ANA at 1 2 3 4 5 10 11 12 14 | 44.6
2'F-ANA at 5 6 8 9 11 14 15 | 57
2'F-ANA at 1 3 4 5 8 9 10 14 | 44.5
2'F-ANA at 3 4 5 6 7 11 13 14 15 | 52.2
2'F-ANA at 2 3 5 8 9 12 | 251
2'F-ANA at 3 6 7 9 12 13 14 | 520
2'F-ANA at 3 4 5 7 8 9 12 13 | 142
2'F-ANA at 1 5 8 9 10 13 15 | 43.5
2'F-ANA at 1 3 5 6 7 9 10 11 12 13 14 15 | 76.3
2'F-ANA at 1 2 3 4 6 9 10 11 15 | 62.6
2'F-ANA at 3 5 6 10 12 14 15 | 48.6
2'F-ANA at 1 2 3 10 11 15 | 141

Set 4
Target: Sal-like protein 4, full length isoform A (SALL4, Homo sapiens, UniProt Q9UJQ4, residues 1-1053)
UniProt Q9UJQ4, sequence (whole entry, looked up): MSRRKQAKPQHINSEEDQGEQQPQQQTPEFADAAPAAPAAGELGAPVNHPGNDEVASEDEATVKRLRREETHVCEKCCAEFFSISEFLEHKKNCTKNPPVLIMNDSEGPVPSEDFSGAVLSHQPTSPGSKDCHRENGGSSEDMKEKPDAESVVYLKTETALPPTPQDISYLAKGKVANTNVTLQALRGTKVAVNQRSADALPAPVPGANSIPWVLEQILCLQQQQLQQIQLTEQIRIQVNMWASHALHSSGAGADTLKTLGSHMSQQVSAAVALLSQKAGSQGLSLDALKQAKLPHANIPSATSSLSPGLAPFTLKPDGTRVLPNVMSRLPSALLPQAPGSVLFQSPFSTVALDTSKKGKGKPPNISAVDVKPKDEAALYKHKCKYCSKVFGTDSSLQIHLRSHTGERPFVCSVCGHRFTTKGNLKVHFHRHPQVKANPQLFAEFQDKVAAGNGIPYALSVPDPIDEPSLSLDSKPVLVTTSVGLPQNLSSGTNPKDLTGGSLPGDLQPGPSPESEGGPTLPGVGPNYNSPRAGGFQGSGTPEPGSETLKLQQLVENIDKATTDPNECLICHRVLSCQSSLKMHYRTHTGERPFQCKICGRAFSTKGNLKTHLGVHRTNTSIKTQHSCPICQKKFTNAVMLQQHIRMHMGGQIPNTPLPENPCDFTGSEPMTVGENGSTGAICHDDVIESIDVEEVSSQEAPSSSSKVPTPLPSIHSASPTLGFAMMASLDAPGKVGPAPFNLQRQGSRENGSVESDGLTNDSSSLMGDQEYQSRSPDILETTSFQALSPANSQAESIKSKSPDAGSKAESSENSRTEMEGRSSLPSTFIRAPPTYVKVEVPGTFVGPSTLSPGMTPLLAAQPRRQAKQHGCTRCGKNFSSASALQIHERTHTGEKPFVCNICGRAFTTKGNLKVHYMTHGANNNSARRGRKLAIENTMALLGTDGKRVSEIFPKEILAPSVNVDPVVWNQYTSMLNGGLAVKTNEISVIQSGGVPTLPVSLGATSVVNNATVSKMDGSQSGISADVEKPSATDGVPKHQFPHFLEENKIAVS
Technique: universal PBM
Molecule type: double-stranded DNA, one strand shown
Sample: in vitro
Concentration: 600 nM
Notes: 8-mer, flanks averaged, mean of replicates
Direction: higher = stronger binding
Oligonucleotide | E-score
CTGAGCCA | -0.28
GCTCCCCC | -0.284
ACAACGAG | 0.107
GCAAGAAC | -0.00072
GTAGAAAA | 0.233
GATGCAGA | -0.0761
AGGTAACA | 0.184
GTAGGGAA | 0.0217
AATTAGCA | 0.217
ATCGTGCG | 0.118
GTCGTAAC | 0.0823
ATTTCTTA | 0.279
AGTACCAA | 0.108
AACTCCCC | -0.0402
CACTACCA | 0.0226
AACGAGAC | -0.0474

Set 5
Target: RNA binding protein fox-1 homolog 2, RRM domain, GST-SBP tag (RBFOX2, Homo sapiens, UniProt O43251-10, residues 100-194)
Technique: RNA Bind-n-Seq
Molecule type: RNA
Sample: in vitro
Concentration: 365 nM
Notes: natural RNA segment, single round, ends assumed
Reference: no-protein control
Direction: higher = stronger binding
Constant ends, left off below: GGGAGUUCUACAGUCCGACGAUC … UGGAAUUCUCGGGUGCCAA
Residues (chain): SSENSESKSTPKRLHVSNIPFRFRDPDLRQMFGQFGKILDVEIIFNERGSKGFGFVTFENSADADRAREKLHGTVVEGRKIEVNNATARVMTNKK
Oligonucleotide | RBNS enrichment (R)
UCAUUCCUGGCAAUUCCCUCCCAAUCCUGCAGGUGCAACCUGCCAGGCCUGGGCCAUUGUCCUCAUCCUGUAGUCAGGGAUCAGGCAUGGGUUUUGAUUUCAGUUUUCCC | 0.268
AAGUUACUCUGAGUUUCUUGGCAGAGUUUUUGACAGCUGUUGCUUUCAAUGGAUUCCAUUCCUGUAUUCCUUAUGGGAGGUUGUUUUUAAAAUAGACUACUGCGAUUGAA | 0.342
GACAUGUGCAGAUGAAAUGUCAAUAUAAGAAAAAUCAAGGUAUUUGGGAAACAUGGGCAUAAUCAGGUAGUUUUGCUAAAAUUCCUCUUCCUUGGUCUACAUAAAGAAGA | 1.1
ACUGAGAAGAUGUCAGUGGUGCUCGGUUCUGCCAGCUGUCAGCGGGCCCGGCUGUUAGCACCGUGCUGACUUUCCAUUGGAGACUUGAGUUGGAGAGAGGUGGGUCCUAU | 0.28
CUGCAAGGCCCGCUUUUCAGGGACCAGUCCACCACCAUCUCCUCCACGUUGAGUGAAGCUCAUCCCAAGCAAGGAGCCCCAGUCUCCCGAGCGGGUAGGAGAGUUUCUUG | 0.367
UGAUGACUUUGUUCUCCCUCCCACUGGGGGAAUCCUCCCUAUGCCUUAAAACUGCCGAGCCCCACUCCAUGUAAUAGGAUUCCUGGGCUUCCUCAAUGGGGGUUCAUGUU | 0.526
AGCAGUGGCUUUUCACAGACAAAGUCAUAAUGCCCUGCAGUCUUGGGCUCAAGCGAUUCUCUCUUCCUUGGCCUCUGGAGUAGACUAAAUGUGUUAGUCUUUGAAUGGAA | 9.29
UUUUCUGAUAAUUAUUUUUGCCUGUCAUCCCAAAAACGUAUUGACAUGCGUGUAUAUUACCUGUGAGUGAGAGUUCUUAGAAACUUGGCCAGAGAGGAUAAAGGGGAGAG | 0.661
UUUGCCUCAAAAUGUCCCUGUUUGAAAGAUUAGCACAAAAGUCUUGAUAGCACAACACAAAUUCCAUCCAAGAGGAGAAUCUUCCCCAGGGUUUAGUCCUGGGGCUGGCA | 2.36
CCACCGGCAGCGUCCAGGUGCGGGGCCGGGAACCACACACCCCACUGGGCCGGCCACAGUCUGGACCCGCACGUCCUGUUCAAAAGCAGACUCGGGAACUGCCUGAAUGU | 3.02
UAGGAAUUCCUGUCCUAUUUGAGAUGAACUAUAUCCUGUACCUCUGUGCUCUGUGUCUGCAUGAAGGCUCAGCCUUUAGAGGCACUCCUUCUAGUUGCAUUAGUACUGUC | 1.47
CCAUGGAGAGGAGAGGCACUGCCGGAGCCCUUGCCAGAUCUCCCUCCCUCUCUCCGUGCAGUAGCUGUGUGUCCGAGGUCAGUGUGCGGAAUCACAGCCAAGGACGUGAA | 0.627

Set 6
Target: Histone acetyltransferase KAT6A, winged helix 2, GST fusion (KAT6A, Homo sapiens, UniProt Q92794, residues 85-181)
Technique: protein binding microarray
Molecule type: double-stranded DNA, one strand shown
Sample: in vitro
Concentration: not given
Notes: 8-mer, flanks averaged, mean of 2 arrays, mostly near background
Reference: not given
Direction: higher = stronger binding
Construct (chain): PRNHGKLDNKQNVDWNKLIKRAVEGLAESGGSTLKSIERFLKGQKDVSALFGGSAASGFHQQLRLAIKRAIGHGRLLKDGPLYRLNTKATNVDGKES
Oligonucleotide | E-score
CGAAATAC | 0.0176
AATGACTG | -0.131
TTCTAAAA | 0.248
ACCGCCGG | 0.188
CCGGTTAA | 0.114
AATCCTCC | -0.126
CTCTTCTC | -0.0462
ATAGAGAA | -0.0209
CTAGACCC | -0.12
AACTCCGC | -0.0586
AAGATCTT | -0.167
CCGCGTCC | 0.163
ATACTGAC | 0.0351
AGCGTAGG | 0.0483
AGATCCCT | -0.259
CAGCAGAG | 0.111
AGCGACGG | -0.00945
TGAATGAA | -0.133
GCGAGGGA | 0.0592
CATGGGCC | 0.0141
CCTGTTGC | 0.0871
CGAGTCCG | 0.141
AGGGAACT | 0.0187
AGTCAATC | -0.0184
AACTTGGA | -0.129

For quick reference, copied from above (set 6):
Oligonucleotide | E-score
CCGCGTCC | 0.163
ATACTGAC | 0.0351
AGCGTAGG | 0.0483
AGATCCCT | -0.259
CAGCAGAG | 0.111
AGCGACGG | -0.00945
TGAATGAA | -0.133
GCGAGGGA | 0.0592
CATGGGCC | 0.0141
CCTGTTGC | 0.0871
